Assay results collected from several papers.
Parts stem from different laboratories: compare values within a part only.
Sequence of UniProt P07948 (whole entry, looked up): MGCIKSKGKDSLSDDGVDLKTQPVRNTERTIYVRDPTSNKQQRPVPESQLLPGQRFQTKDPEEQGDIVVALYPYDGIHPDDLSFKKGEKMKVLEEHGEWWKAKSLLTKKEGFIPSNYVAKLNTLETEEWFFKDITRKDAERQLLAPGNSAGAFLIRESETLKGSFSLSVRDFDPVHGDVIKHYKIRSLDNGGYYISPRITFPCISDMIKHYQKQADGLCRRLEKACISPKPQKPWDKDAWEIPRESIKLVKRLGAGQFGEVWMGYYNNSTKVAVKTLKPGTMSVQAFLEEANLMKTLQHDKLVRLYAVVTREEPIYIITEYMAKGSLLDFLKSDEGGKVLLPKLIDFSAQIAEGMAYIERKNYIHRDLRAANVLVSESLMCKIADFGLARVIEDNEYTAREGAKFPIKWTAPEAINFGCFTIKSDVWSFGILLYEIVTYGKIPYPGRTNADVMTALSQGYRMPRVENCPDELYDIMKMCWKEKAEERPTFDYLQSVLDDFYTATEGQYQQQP
Sequence of UniProt O14965 (whole entry, looked up): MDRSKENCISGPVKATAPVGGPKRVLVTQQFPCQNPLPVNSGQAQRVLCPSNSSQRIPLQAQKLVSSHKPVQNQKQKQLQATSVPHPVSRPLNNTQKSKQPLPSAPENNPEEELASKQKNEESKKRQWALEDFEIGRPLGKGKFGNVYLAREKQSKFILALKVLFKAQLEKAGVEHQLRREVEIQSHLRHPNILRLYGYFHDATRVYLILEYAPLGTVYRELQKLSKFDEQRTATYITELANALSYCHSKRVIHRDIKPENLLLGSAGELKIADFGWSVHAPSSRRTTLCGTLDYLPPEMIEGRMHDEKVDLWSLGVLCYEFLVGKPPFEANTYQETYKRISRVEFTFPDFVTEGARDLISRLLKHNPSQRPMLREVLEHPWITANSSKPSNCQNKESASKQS
Sequence of UniProt Q9BUB5 (whole entry, looked up): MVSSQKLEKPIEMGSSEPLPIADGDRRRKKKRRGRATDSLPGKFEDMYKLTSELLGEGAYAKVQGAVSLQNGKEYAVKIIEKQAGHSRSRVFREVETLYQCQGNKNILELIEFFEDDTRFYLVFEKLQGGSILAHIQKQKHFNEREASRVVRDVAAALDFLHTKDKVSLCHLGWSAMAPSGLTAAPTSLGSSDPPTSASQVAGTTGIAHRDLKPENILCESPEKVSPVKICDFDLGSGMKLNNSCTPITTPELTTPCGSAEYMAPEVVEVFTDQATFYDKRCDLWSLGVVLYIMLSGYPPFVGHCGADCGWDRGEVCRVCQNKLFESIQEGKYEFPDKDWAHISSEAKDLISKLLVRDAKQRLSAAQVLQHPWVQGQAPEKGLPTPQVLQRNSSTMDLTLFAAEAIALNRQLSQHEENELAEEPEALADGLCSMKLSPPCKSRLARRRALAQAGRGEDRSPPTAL
Sequence of UniProt Q16832 (whole entry, looked up): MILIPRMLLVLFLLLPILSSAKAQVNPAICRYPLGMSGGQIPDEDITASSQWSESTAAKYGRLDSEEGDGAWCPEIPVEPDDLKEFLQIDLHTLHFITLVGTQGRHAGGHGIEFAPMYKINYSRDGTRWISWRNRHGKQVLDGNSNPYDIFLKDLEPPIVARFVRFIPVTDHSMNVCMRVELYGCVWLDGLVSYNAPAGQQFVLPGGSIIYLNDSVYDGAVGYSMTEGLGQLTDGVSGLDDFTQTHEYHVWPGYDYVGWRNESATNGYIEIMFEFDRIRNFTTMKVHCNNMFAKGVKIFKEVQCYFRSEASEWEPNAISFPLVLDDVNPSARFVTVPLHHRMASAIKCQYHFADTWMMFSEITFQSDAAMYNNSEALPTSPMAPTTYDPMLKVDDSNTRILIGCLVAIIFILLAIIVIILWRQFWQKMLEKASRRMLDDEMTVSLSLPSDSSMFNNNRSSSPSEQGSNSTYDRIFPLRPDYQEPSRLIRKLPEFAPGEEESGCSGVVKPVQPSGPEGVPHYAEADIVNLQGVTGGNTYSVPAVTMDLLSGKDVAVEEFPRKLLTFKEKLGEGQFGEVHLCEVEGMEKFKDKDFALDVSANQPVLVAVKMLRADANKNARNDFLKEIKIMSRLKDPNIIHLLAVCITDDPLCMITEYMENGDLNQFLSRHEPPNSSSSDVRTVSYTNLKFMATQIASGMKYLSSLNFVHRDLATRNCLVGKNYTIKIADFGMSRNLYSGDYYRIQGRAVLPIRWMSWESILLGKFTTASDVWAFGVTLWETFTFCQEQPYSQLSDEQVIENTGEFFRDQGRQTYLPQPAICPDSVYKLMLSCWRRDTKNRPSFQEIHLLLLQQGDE
Sequence of UniProt P57078 (whole entry, looked up): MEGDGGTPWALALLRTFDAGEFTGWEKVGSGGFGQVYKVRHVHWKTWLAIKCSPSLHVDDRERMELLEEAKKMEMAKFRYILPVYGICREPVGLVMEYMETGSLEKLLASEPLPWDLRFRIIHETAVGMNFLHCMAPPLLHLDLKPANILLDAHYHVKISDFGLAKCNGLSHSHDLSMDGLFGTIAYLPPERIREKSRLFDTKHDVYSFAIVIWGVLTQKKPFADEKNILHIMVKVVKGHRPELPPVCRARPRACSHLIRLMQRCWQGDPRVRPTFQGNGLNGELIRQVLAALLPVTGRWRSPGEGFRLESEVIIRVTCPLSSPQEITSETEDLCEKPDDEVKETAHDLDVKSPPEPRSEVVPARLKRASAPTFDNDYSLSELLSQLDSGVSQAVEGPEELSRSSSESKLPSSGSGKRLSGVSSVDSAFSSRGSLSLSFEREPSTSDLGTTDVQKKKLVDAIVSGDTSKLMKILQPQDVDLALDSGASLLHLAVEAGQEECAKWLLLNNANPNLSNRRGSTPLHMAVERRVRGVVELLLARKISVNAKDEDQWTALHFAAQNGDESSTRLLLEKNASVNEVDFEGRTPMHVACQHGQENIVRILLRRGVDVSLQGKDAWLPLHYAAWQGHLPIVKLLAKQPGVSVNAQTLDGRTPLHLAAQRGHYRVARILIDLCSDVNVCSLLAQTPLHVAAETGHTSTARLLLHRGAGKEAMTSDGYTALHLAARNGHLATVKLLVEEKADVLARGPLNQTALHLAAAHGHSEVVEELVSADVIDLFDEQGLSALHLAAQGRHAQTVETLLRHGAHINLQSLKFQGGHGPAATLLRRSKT
Sequence of UniProt Q16566 (whole entry, looked up): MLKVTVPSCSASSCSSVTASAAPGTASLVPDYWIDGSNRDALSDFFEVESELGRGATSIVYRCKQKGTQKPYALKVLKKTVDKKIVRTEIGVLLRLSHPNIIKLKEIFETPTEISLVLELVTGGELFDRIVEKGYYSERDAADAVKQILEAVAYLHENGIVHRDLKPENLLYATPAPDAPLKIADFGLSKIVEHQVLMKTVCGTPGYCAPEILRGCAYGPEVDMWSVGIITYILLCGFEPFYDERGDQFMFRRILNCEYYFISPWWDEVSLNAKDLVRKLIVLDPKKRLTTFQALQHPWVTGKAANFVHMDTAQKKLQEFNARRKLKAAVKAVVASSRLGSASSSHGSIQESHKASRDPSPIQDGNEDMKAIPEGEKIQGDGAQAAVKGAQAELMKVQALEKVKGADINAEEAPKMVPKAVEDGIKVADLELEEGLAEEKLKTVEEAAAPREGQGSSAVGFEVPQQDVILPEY
Sequence of UniProt P49760 (whole entry, looked up): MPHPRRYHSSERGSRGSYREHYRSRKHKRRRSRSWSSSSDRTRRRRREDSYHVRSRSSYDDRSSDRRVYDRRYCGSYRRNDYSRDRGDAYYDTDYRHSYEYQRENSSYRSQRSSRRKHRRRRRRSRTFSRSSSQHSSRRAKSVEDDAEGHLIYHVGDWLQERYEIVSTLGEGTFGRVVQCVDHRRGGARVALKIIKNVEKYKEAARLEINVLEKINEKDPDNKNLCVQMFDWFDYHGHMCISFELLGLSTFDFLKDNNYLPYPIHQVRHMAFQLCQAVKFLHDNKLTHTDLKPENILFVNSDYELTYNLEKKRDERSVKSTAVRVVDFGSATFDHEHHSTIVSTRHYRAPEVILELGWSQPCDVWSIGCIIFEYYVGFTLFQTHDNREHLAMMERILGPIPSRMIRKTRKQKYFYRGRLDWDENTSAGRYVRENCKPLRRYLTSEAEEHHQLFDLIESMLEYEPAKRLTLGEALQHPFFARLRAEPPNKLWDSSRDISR
Sequence of UniProt Q14012 (whole entry, looked up): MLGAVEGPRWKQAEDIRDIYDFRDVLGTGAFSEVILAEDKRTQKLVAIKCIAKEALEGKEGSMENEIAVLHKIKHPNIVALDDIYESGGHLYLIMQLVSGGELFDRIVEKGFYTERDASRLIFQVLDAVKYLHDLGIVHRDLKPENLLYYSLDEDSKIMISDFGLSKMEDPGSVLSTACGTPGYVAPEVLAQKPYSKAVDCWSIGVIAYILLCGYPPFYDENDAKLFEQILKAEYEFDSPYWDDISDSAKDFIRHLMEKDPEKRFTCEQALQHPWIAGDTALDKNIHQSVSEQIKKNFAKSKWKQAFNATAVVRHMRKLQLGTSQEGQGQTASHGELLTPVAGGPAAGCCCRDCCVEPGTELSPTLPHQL

Set 1 — cell line: HaCaT; tested at: 100 µM; time: 36 h
With `CC(C)[C@H](NC(=O)[C@H](CC(=O)O)NC(=O)[C@H](CCCCN)NC(=O)[C@@H](N)CCCN=C(N)N)C(=O)N[C@@H](Cc1ccc(O)cc1)C(=O)O` the viability was 85.3%.
For `CC(CCc1ccccc1)NCC(O)c1ccc(O)c(C(N)=O)c1` (stereo not shown), the viability was 51.4%.
For `CS(=O)(=O)OCCCCOS(C)(=O)=O`, the viability was 97.1%.
`C[C@@H](NCCCc1cccc(C(F)(F)F)c1)c1cccc2ccccc12` has a viability of 6.19%.
For `CC(C)/N=c1\cc2n(-c3ccc(Cl)cc3)c3ccccc3nc-2cc1Nc1ccc(Cl)cc1`, the viability was 31.1%.
`CN1CCC(=C2c3ccccc3CCn3c(C=O)cnc32)CC1` gave a viability of 84.5%.
The viability of `C[C@H]1CN(C[C@H](Cc2ccccc2)C(=O)NCC(=O)O)CC[C@@]1(C)c1cccc(O)c1` is reported as 88.6%.

Set 2 — method: competition with immobilised ligand; tested at: 1 µM
SMILES: C[C@@H]1CN(c2cc(-c3nn(C)c4ccc(OC5(C)CC5)cc34)ncn2)C[C@H](C)O1
The remaining binding was 76% (Serine/threonine-protein kinase PAK 1 (PAK1, Homo sapiens, UniProt Q13153); cell-free assay).
Discoidin domain-containing receptor 2 (DDR2, Homo sapiens, UniProt Q16832); cell-free assay — remaining binding: 79%.
Tyrosine-protein kinase Lyn (LYN, Homo sapiens, UniProt P07948); cell-free assay — remaining binding: 82%.
Cyclin-dependent kinase 11A (CDK11A, Homo sapiens, UniProt Q9UQ88); binding — remaining binding: 100%.
Calcium/calmodulin-dependent protein kinase type 1 (CAMK1, Homo sapiens, UniProt Q14012); cell-free assay — remaining binding: 100%.
The remaining binding was 95% (Vascular endothelial growth factor receptor 1 (FLT1, Homo sapiens, UniProt P17948); cell-free assay).
Aurora kinase A (AURKA, Homo sapiens, UniProt O14965); cell-free assay — remaining binding: 100%.
It gave 85% for remaining binding (Receptor-interacting serine/threonine-protein kinase 4 (RIPK4, Homo sapiens, UniProt P57078); cell-free assay).
The remaining binding was 81% (Dual specificity protein kinase CLK2 (CLK2, Homo sapiens, UniProt P49760); cell-free assay).
The remaining binding was 84% (Phosphatidylinositol 5-phosphate 4-kinase type-2 beta (PIP4K2B, Homo sapiens, UniProt P78356); cell-free assay).
Serine/threonine-protein kinase ICK (CILK1, Homo sapiens, UniProt Q9UPZ9); cell-free assay — remaining binding: 78%.
For Calcium/calmodulin-dependent protein kinase type IV (CAMK4, Homo sapiens, UniProt Q16566); cell-free assay: remaining binding read 67%.
It gave 100% for remaining binding (Tyrosine-protein kinase ABL2 (ABL2, Homo sapiens, UniProt P42684); cell-free assay).
It gave 79% for remaining binding (MAP kinase-interacting serine/threonine-protein kinase 1 (MKNK1, Homo sapiens, UniProt Q9BUB5); cell-free assay).

Set 3 — read-out: enzyme activity; action: inhibitor; tested at: 0.5 µM; reference: control
Target: Serine/threonine-protein kinase pim-2 (PIM2, Homo sapiens, UniProt Q9P1W9)
Sequence of UniProt Q9P1W9 (whole entry, looked up): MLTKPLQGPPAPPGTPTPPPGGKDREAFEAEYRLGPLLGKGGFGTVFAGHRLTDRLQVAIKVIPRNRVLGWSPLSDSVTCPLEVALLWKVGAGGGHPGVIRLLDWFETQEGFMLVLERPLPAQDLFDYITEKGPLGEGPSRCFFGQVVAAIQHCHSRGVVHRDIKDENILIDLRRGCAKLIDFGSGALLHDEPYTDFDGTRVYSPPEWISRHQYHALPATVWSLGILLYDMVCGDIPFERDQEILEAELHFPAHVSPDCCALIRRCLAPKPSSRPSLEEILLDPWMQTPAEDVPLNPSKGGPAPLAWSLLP
`O=C1NC(=O)/C(=C/c2ccc3nccnc3c2)S1` has a remaining activity of 100%.
`COc1cc2ncnc(Nc3ccc(OCc4ccccc4)cc3)c2cc1OC` has a remaining activity of 97.6%.
`Nc1[nH]nc2nnc(-c3c(-c4ccccc4)nn4ccccc34)cc12` has a remaining activity of 91.7%.
With `Cc1nc(Nc2ncc(C(=O)Nc3c(C)cccc3Cl)s2)cc(N2CCN(CCO)CC2)n1` the remaining activity was 113%.
For `C[S+]([O-])c1ccc(-c2nc(-c3ccncc3)c(-c3ccc(F)cc3)[nH]2)cc1` (stereo not shown), the remaining activity was 104%.
`COc1cc2ncc(-c3ccccc3)nc2cc1OC` gave a remaining activity of 101%.
The remaining activity of `CC(C)c1nn(-c2c(Cl)cccc2Cl)c2nc(Cc3ccc(OCCO)cc3)[nH]c(=O)c12` is reported as 104%.
The remaining activity of `COc1ccc(-c2cnc3c(-c4ccsc4)cnn3c2)cc1` is reported as 105%.
`CC(=O)O/N=C1/C(c2c(O)[nH]c3cc(Br)ccc23)=Nc2ccccc21` gave a remaining activity of 93.2%.
With `CC(C)[C@H](CO)Nc1nc(Nc2cccc(Cl)c2)c2ncn(C(C)C)c2n1` the remaining activity was 105%.
`CN(C)CCCn1cc(C2=C(c3c[nH]c4ccccc34)C(=O)NC2=O)c2ccccc21` gave a remaining activity of 64.1%.
`CS(=O)(=O)CCNCc1ccc(-c2ccc3ncnc(Nc4ccc(OCc5cccc(F)c5)c(Cl)c4)c3c2)o1` has a remaining activity of 102%.
`COc1ccc(Cl)cc1NC(=O)Nc1cc(C)nc2ccccc12` gave a remaining activity of 99.8%.
The remaining activity of `COc1cc2ncnc(N3CCN(C(=O)Nc4ccc(Oc5ccccc5)cc4)CC3)c2cc1OC` is reported as 101%.
`Cn1cc(/C=C2\C(=O)Nc3ccc(S(N)(=O)=O)cc32)c2ccccc21` has a remaining activity of 101%.
The remaining activity of `Cn1cnc2cc3c(Nc4cccc(Br)c4)ncnc3cc21` is reported as 113%.
The remaining activity of `CCC(=O)Nc1ccc2ncnc(Nc3cccc(Br)c3)c2c1` is reported as 90.3%.
`O=C(Nc1ccc(Cl)cc1)c1ccccc1NCc1ccncc1` gave a remaining activity of 99.5%.
The remaining activity of `CCOc1cc2ncnc(Nc3cccc(Br)c3)c2cc1OCC` is reported as 98.9%.
The remaining activity of `CCN1/C(=C/C(C)=O)Sc2ccc(OC)cc21` is reported as 102%.
`O=c1cc(N2CCOCC2)oc2c1ccc1ccccc12` has a remaining activity of 78.8%.
With `Cc1ccc(NC(=O)c2ccc(CN3CCN(C)CC3)cc2)cc1Nc1nccc(-c2cccnc2)n1` the remaining activity was 98.4%.

Set 4 — cell line: mouse MPNST tumor cells; method: high-content nuclear imaging; item: cell number; tested at: 10 µM; time: 12 h; setting: mean of 2 replicates; reference: plate mean; reading: higher = more cells
`COc1ccc(S(=O)(=O)Nc2nc(-c3cccc([N+](=O)[O-])c3)cs2)cc1OC` has a nuclei count of 0.501 z-score.
The nuclei count of `CC(Oc1ccccc1)C(=O)N[C@@H]1C(=O)N2[C@@H]1SC(C)(C)[C@@H]2C(=O)O` (stereo partly shown) is reported as 0.744 z-score.
With `Cc1cc2c(cc1S(N)(=O)=O)S(=O)(=O)CCC2` the nuclei count was 0.204 z-score.
`CC(C)c1cc(N2CC[C@@H](N)C2)nc(N)n1` has a nuclei count of 3.29 z-score.
For `Cc1cccn2c(=O)c(-c3nnn[nH]3)cnc12`, the nuclei count was 0.127 z-score.
With `CN(CCCCCCCCCCN(C)C(=O)Oc1cccc([N+](C)(C)C)c1)C(=O)Oc1cccc([N+](C)(C)C)c1` the nuclei count was 0.852 z-score.
With `CCOC(=O)N1CCC(CN(Cc2ccc(Cl)cc2)Cc2ccc([N+](=O)[O-])s2)C1` (stereo not shown) the nuclei count was 1.95 z-score.
With `CCC(F)(F)c1cc(N2CCC(S(C)(=O)=O)CC2)nc2sc(C(N)=O)c(N)c12` the nuclei count was -0.898 z-score.
With `COc1ccc(C(=O)c2ccccc2O)c(O)c1` the nuclei count was -0.0748 z-score.
`CCCNCC(O)COc1ccccc1C(=O)CCc1ccccc1` (stereo not shown) has a nuclei count of 2.17 z-score.
With `CC[C@@]1(O)C(=O)OCc2c1cc1n(c2=O)Cc2cc3c(CN(C)C)c(O)ccc3nc2-1` the nuclei count was -1.77 z-score.
With `CC1(C)[C@@H](OC(=O)CCC(=O)O)CC[C@]2(C)[C@H]3C(=O)C=C4[C@@H]5C[C@@](C)(C(=O)O)CC[C@]5(C)CC[C@@]4(C)[C@]3(C)CC[C@@H]12` the nuclei count was 0.403 z-score.
